Published values from different studies.
Protocols differ between the studies behind these lines. “And” joins repeats or separate records; there may be more than shown. Numbers after ± are the reported error.
MAPK8: Mitogen-activated protein kinase 8 (MAPK8, Homo sapiens, UniProt P45983)
Chain of UniProt P45983 (whole entry, looked up): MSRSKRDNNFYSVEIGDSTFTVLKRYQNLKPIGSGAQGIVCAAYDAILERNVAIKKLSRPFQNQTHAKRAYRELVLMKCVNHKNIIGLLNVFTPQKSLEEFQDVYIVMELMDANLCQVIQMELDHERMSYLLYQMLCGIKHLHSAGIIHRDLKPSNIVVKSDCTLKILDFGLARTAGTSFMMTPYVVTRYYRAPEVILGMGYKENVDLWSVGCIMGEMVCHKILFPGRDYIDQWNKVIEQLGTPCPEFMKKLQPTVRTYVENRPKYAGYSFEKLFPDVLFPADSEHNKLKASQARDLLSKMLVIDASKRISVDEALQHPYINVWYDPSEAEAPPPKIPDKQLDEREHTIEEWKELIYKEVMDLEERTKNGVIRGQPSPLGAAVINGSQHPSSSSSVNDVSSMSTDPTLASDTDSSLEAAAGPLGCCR
Chain of UniProt O15355 (whole entry, looked up): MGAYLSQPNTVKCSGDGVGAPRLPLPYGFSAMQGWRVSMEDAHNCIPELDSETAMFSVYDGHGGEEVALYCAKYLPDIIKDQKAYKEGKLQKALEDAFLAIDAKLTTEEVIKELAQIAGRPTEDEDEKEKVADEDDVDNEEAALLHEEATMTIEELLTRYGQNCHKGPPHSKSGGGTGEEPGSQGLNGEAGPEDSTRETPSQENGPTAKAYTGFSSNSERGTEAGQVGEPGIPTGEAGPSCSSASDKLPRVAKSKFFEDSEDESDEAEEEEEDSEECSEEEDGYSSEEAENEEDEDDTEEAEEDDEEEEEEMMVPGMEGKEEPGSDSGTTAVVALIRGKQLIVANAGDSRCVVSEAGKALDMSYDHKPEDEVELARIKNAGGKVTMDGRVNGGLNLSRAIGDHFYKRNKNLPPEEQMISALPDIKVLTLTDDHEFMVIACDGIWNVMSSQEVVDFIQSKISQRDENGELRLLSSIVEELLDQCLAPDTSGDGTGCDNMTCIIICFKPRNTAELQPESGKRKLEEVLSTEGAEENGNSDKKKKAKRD
Chain of UniProt P14416 (whole entry, looked up): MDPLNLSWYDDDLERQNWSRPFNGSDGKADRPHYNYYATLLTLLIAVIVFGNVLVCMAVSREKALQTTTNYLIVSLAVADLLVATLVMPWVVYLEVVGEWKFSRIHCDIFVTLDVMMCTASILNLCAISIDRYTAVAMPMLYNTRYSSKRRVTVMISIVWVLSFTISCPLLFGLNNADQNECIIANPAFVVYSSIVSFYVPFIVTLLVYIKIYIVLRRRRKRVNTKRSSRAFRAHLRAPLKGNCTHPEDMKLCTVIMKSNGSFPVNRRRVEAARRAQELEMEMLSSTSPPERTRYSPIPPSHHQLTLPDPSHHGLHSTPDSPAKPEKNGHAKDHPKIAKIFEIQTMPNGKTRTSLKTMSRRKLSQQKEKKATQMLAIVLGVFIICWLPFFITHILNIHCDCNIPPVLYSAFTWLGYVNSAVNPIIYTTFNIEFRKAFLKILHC
Chain of UniProt Q9BY41 (whole entry, looked up): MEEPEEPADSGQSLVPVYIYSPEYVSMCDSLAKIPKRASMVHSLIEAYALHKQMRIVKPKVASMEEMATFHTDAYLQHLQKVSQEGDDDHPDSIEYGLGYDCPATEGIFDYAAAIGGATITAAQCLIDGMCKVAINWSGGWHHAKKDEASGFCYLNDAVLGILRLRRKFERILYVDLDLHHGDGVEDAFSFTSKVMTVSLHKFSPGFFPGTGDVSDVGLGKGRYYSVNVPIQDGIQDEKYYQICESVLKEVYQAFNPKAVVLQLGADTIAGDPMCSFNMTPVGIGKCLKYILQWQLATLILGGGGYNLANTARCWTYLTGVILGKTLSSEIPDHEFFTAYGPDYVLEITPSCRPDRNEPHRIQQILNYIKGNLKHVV
Chain of UniProt P25440 (whole entry, looked up): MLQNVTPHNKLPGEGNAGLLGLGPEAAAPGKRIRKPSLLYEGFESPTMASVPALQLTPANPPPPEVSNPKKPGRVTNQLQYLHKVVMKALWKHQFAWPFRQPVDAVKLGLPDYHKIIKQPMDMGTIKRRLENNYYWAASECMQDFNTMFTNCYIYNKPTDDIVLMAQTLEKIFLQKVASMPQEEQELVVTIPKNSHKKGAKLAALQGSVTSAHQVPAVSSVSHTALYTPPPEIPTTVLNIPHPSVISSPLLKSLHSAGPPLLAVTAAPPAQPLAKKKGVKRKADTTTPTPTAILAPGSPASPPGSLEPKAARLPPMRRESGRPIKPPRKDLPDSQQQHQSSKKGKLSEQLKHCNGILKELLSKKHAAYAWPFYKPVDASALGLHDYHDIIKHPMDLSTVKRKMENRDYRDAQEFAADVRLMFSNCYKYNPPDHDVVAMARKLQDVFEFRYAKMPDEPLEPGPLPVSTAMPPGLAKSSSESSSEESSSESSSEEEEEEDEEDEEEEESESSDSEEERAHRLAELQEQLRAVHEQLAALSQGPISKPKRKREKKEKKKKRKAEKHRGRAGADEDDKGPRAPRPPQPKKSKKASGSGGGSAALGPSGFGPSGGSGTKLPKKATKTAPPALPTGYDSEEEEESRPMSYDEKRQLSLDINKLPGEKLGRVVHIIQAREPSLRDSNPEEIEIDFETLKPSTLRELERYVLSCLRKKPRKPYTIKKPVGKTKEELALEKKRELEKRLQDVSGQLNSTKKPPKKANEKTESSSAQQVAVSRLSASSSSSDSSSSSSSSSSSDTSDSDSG
Chain of UniProt Q14191 (500-946, looked up): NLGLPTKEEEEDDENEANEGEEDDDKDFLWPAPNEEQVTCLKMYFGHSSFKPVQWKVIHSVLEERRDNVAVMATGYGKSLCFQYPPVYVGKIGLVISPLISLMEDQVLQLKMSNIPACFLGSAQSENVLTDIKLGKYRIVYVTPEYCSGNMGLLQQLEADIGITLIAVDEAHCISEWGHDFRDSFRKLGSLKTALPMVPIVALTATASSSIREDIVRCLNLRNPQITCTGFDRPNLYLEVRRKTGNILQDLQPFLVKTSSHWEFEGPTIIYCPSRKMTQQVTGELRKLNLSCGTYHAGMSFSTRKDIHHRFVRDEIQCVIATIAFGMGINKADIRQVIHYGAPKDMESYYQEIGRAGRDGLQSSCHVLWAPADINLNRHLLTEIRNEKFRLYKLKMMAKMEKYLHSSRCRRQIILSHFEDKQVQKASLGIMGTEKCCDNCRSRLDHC
Chain of UniProt Q704Y3 (whole entry, unmodified, looked up): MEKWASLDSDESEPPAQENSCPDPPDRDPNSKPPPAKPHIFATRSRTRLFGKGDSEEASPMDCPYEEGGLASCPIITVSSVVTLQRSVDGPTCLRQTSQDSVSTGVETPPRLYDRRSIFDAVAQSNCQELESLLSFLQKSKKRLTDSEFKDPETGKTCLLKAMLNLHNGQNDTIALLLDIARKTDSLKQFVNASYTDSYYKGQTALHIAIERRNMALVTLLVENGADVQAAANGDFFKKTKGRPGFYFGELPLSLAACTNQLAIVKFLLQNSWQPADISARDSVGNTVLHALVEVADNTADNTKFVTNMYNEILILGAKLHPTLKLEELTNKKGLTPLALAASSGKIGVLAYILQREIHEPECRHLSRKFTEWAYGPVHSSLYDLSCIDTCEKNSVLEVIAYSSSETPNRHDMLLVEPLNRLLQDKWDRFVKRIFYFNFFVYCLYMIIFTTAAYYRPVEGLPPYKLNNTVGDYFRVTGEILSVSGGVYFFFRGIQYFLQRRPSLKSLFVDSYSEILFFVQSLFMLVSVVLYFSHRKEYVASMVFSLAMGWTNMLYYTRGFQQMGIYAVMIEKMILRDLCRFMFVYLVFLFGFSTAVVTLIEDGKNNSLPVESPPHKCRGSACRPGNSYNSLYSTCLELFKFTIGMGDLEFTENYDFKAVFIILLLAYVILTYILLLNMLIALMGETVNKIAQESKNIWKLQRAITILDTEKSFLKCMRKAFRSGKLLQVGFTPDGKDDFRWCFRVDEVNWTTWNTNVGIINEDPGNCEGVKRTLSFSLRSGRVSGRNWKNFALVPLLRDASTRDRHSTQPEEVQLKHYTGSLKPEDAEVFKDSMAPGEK
Chain of UniProt Q6V1X1 (whole entry, looked up): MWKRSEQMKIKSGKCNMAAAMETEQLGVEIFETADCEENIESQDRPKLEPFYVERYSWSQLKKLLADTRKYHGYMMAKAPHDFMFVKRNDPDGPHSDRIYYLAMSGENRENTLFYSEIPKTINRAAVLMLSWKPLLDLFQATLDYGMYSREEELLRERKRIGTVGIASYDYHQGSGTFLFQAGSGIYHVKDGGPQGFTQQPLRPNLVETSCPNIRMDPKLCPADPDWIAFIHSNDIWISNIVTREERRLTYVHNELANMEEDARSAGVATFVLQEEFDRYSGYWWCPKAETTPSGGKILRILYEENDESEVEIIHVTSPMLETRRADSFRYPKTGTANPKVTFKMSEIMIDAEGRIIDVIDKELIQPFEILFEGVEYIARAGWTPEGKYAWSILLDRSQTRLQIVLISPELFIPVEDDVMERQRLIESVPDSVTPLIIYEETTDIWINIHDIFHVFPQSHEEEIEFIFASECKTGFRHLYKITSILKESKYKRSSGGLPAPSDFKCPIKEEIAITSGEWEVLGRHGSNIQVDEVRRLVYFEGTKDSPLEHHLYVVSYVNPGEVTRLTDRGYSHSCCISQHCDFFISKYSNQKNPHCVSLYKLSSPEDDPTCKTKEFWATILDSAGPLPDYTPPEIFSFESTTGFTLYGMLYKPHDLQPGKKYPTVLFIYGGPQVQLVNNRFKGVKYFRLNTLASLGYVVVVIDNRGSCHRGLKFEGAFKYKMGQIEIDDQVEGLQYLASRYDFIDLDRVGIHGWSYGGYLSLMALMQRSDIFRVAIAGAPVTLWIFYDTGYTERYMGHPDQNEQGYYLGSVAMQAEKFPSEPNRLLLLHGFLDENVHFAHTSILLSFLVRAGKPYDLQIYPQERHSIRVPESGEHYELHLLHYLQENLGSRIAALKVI

SMILES | target or system | assay | test system | conditions | scale | quantity | result
COC1CN([C@H]2CC[C@H]([C@@]3(C)Oc4c(Cl)cc(C(=O)NCc5c(SC)cc(C)[nH]c5=O)c(C)c4O3)CC2)C1 |  | RNA-seq, measured: FNBP1L | human, whole blood | dose not given, 24 h | relative to: pretreatment baseline | log2 fold change | 1.61
CCCn1ccc2c(N3CCN(CCCCOc4ccc5c(c4)NC(=O)CC5)CC3)cccc21 | DRD2 (Homo sapiens, UniProt P14416) | Gi/o signalling (cAMP inhibition), agonist, GloSensor cAMP |  | concentration not given |  | activity | inactive
COC(=O)[C@@]1(C)C=C(C(=O)NCc2cccc(C(=O)Nc3ccc(Nc4nccc(-c5cccnc5)n4)c(C)c3)c2)C(=O)CC1 | MAPK8 | SPR two-step binding model |  | reversible bond formation |  | ΔΔG bond formation contribution | -1.83 kcal/mol
Cc1cc(=O)oc2cc(NC(=O)CCCCCCC(=O)NO)ccc12 | HDAC8 (Homo sapiens, UniProt Q9BY41) | ITC | Tris-HCl buffer | concentration not given, 288 K |  | binding stoichiometry | 0.82
C[C@@H]1C[C@H](Nc2ccccc2)c2cc(F)ccc2N1C(=O)c1ccc(C#N)c(F)c1 | Ecdysone receptor (Aedes albopictus, UniProt Q9U3Y4) | ligand binding, inhibitor | intact cells | added: [3H]ponasterone A | direction not given | pIC50 Z-score | 2.26
CCCCCC(O)/C=C/C=O (stereo not shown) | Elongation factor 2, Cys41 (EEF2, Homo sapiens, UniProt P13639) | competitive isoTOP-ABPP | Ramos soluble proteome | 100 µM, 60 min, added: iodoacetamide probe | relative to: DMSO over compound-treated, higher = stronger cysteine blockade | isoTOP-ABPP competition ratio | 1.6
Cn1cc(-c2cc(N3CCCCS3(=O)=O)ccc2N[C@H]2CC[C@H](C)CC2)c2cc[nH]c2c1=O (stereo in doubt) | Bromodomain-containing protein 2, BD1 (BRD2, Homo sapiens, UniProt P25440) | binding, competition with immobilised ligand |  | 1 µM |  | remaining binding | 0.5%
CC(C)C[C@@H]1NC(=O)[C@H](Cc2ccccc2)NC(=O)CSC[C@@H](C(=O)NCC(N)=O)NC(=O)[C@H](Cc2ccc(O)cc2)NC(=O)[C@H](C(C)C)NC(=O)[C@H](Cc2ccccc2)NC(=O)[C@H](Cc2ccc(O)cc2)NC(=O)[C@H](Cc2ccccc2)NC(=O)[C@H](CC(=O)O)NC(=O)[C@H](CC(N)=O)NC(=O)[C@H](CC(N)=O)NC(=O)[C@H](Cc2ccc(O)cc2)NC(=O)[C@H](C(C)C)NC(=O)[C@H](Cc2ccccc2)NC1=O | STING1 (Homo sapiens, UniProt Q86WV6, H232R) | thermal stability, DSF |  | 200 µM |  | ΔTm | 0.24 °C
O=C(O)C(F)(F)F.O=C1N(c2cccc(CN3CCc4cc5c(cc4C3)OCO5)c2)C(=O)C12CCCCC2 | Dipeptidyl peptidase 8 (Homo sapiens, UniProt Q6V1X1) | enzyme activity, inhibitor |  | 5 µM |  | activity vs control | 69%
COc1ccccc1-c1ccncc1C(=O)Nc1nnc(OCc2ccc(Cl)cc2)s1 | Bifunctional 3'-5' exonuclease/ATP-dependent helicase WRN, residues 500-946 (WRN, Homo sapiens, UniProt Q14191) | ATPase activity, ADP-Glo |  | 0.03 µM | relative to: 0 µM cpd | remaining activity | 106%
Cc1cn(CC(=O)N(CCNC(=O)CN(CCNC(=O)CN(CCNC(=O)CN(CCNC(=O)CN(CCNC(=O)CN(CCNC(=O)CN(CCNC(=O)CN(CCN)C(=O)Cn2cnc3c(=O)[nH]c(N)nc32)C(=O)Cn2cnc3c(N)ncnc32)C(=O)Cn2cc(C)c(=O)[nH]c2=O)C(=O)Cn2cnc3c(=O)[nH]c(N)nc32)C(=O)Cn2cc(C)c(=O)[nH]c2=O)C(=O)Cn2cnc3c(=O)[nH]c(N)nc32)C(=O)Cn2cnc3c(N)ncnc32)CC(=O)NCCN(CC(=O)NCCOCCOCC(N)=O)C(=O)Cn2cnc3c(N)ncnc32)c(=O)[nH]c1=O | complementary RNA | duplex formation, UV melting curve fit | PBS | 1 µM |  | ΔH | -60.9 ± 0.1 kcal/mol
C=CC(=O)N1CCCC(n2c(=O)c3ncccc3n(Cc3ccc(Oc4ccccc4)cc3)c2=O)C1 (stereo not shown) | Protein phosphatase 1G (Homo sapiens, UniProt O15355) | thermal proteome profiling, measured: PPM1G |  | treated |  | melting temperature | 51.3 °C and 42 °C
COC(=O)C1(C)C=C(C(=O)OC(C)(C)C)C(=O)CC1 (stereo not shown) | MAPK8 | D-peptide binding, inhibitor, FP peptide displacement |  | 125 µM | lower is stronger displacement | fraction bound | 0.454
Cc1ncsc1-c1ccc(C(C)NC(=O)C2CC(O)CN2C(=O)C(NC(=O)CCCCCCCCCCN2CCCC(Nc3ncc(Cl)c(Nc4ccccc4S(=O)(=O)C(C)C)n3)C2)C(C)(C)C)cc1 (stereo not shown) | 22Rv1 | RNA-seq, measured: ZNF776 mRNA |  | concentration not given | relative to: DMSO | log2 fold change | -1.29
COC(=O)[C@@]1(Cc2ccccc2)C=C(C(=O)OC(C)(C)C)C(=O)CC1 | MAPK8 | D-peptide binding, inhibitor, FP peptide displacement |  | 250 µM | lower is stronger displacement | fraction bound | -0.0933
CCCCCCCC/C=C\CCCCCCCC(=O)NCCO | Trpv1 (Mus musculus, UniProt Q704Y3, T557S) | ion current, agonist, whole-cell patch clamp |  | T557S | relative to: 3 mM 2-APB | maximal open probability | 0.54 ± 0.19

Some of these lines once more:
SMILES | target or system | assay | test system | conditions | scale | quantity | result
COC1CN([C@H]2CC[C@H]([C@@]3(C)Oc4c(Cl)cc(C(=O)NCc5c(SC)cc(C)[nH]c5=O)c(C)c4O3)CC2)C1 |  | RNA-seq, measured: FNBP1L | human, whole blood | dose not given, 24 h | relative to: pretreatment baseline | log2 fold change | 1.61
